Results pooled from the literature.
Each numbered part is a random draw from the data of one study; scales do not carry over between parts. Changes are numbered by the printed parent chain.

Study 1
Target: CCND1, cyclin fold, Cln2 fusion (human)
Method: yeast growth competition, sequencing
Medium: yeast
Notes: weak parent motif
Reference: not given
Direction: higher = stronger binding
Measurement: normalised enrichment score
Parent: MICAL3 docking peptide (human); LQLRRQLSFSEDS
LQLWRQLSFSEDS [R4W]: 0.188
LQLRRQLPFSEDS [S8P]: -0.252
LQLRRQLHFSEDS [S8H]: 0.264
LQLRGQLSFSEDS [R5G]: 0.155
LQLRRQLKFSEDS [S8K]: -0.088
LQLRRTLSFSEDS [Q6T]: 0.245
LQLRRPLSFSEDS [Q6P]: 0.533
LQLRRQLSFSADS [E11A]: 0.276
LQLRSQLSFSEDS [R5S]: -0.47
LQLRRQLSFKEDS [S10K]: -0.0136
LQLRRRLSFSEDS [Q6R]: 2.22
LQLRRQISFSEDS [L7I]: 1.01
LQLRQQLSFSEDS [R5Q]: 0.000357
LQLERQLSFSEDS [R4E]: -0.429
LQLRRLLSFSEDS [Q6L]: 0.187
LQLRRQLSFSEGS [D12G]: 0.208

Study 2
Target: ABI1, truncated, D143A, DHFR fusion (Arabidopsis thaliana)
Method: DHFR PCA, deep sequencing
Medium: yeast
Notes: methotrexate growth selection, single substitutions
Together with: (+)-ABA 1.4 µM
Reference: wild-type fitted maximum
Direction: higher = stronger binding
Measurement: relative binding score
Parent: PYL1, truncated, DHFR fusion (Arabidopsis thaliana); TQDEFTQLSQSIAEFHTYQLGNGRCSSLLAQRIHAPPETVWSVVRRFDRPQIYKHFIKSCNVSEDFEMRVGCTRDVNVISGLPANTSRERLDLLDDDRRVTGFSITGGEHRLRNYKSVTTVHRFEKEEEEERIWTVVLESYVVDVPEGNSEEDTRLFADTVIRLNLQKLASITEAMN
I79Y: 49.5%
S80Y: 33.4%
S171Y: 27.5%
H16W: -5.42%
G81Y: -6.67%
H55W: 52.2%
V44S: -3.15%
R132M: 62.3%
R49D: -3.99%
T39L: 68%
E174K: 3.89%
N165T: 13.1%
V70P: 66.4%
D65Q: 33.9%
S140I: -8.87%
V161W: 59.9%
V137G: -0.996%
V136R: 2.97%
A175Q: 54.5%

Study 3
Target: UBE2J1 UBC core domain (UniProt Q9Y385)
Method: yeast two-hybrid
Medium: yeast
Notes: mostly zero background
Reference: not given
Direction: higher = stronger interaction
Measurement: lacZ reporter activity
B1: ZNRF4 RING domain (UniProt Q8WWF5); chain VRTFTWHNDLCAICLDEYEEGDQLKILPCSHTYHCKCIDPWFSQAPRRSCPVCKQSVAATEDSF
B2: TRIM11 RING domain (UniProt Q96F44); chain LSTNLQEEATCAICLDYFTDPVMTDCGHNFCRECIRRCWGQPEGPYACPECRELSPQRNLRP
B3: BFAR RING domain (UniProt Q9NZS9); chain GPQISVSEFSCHCCYDILVNPTTLNCGHSFCRHCLALWWASSKKTECPECREKWEGFPKVS
B4: RNF182 RING domain (UniProt Q8N6D2); chain AESQASDELECKICYNRYNLKQRKPKVLECCHRVCAKCLYKIIDFGDSPQGVIVCPFCRFETCLPDDEV
B5: RNF186 RING domain (UniProt Q9NXI6); chain HSGSTECDLECLVCREPYSCPRLPKLLACQHAFCAICLKLLLCVQDNTWSITCPLCRKVTAVPGGLI
B6: ZMYND11 RING domain (UniProt Q15326); chain DEIDWETENHDWYCFECHLPGEVLICDLCFRVYHSKCLSDEFRLRDSSSPWQCPVCRSIKKKNTNKQEM
B7: RNF103 RING domain (UniProt O00237); chain WPADMLHCTECVVCLENFENGCLLMGLPCGHVFHQNCIVMWLAGGRHCCPVCRWPSYKKKQPY
B8: CNOT4 RING domain (UniProt O95628); chain MSRSPDAKEDPVECPLCMEPLEIDDINFFPCTCGYQICRFCWHRIRTDENGLCPACRKPYPED
B9: RUFY1 RING domain (UniProt Q96T51); chain QALKGHAWLKDDEATHCRQCEKEFSISRRKHHCRNCGHIFCNTCSSNELALPSYPKPVRVCDSCHTLLLQRCSSTAS
Residues (chain): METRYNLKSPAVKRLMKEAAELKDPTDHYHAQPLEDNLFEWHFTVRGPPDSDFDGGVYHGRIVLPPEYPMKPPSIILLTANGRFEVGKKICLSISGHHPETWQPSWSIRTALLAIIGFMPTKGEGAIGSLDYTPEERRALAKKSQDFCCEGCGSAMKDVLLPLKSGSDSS
B1 (ZNRF4 RING domain): 0
B2 (TRIM11 RING domain): 0
LVKDFNPYITCYICKGYLIKPTTVTECLHTFCKTCIVQHFEDSNDCPRCGNQVHETNPLE (PCGF5 RING domain (UniProt Q86SE9)): 0
B3 (BFAR RING domain): 0
B4 (RNF182 RING domain): 0
B5 (RNF186 RING domain): 0
B6 (ZMYND11 RING domain): 0
ASPKIFQKTKCSICNSALELPSVHFLCGHSFHQHCFESYSESDADCPTCLPENRKVMDMI (VPS11 RING domain (UniProt Q9H270)): 0
B7 (RNF103 RING domain): 0
FAEQPSVKLCCQLCCSVFKDPVITTCGHTFCRRCALKSEKCPVDNVKLTVVVNNI (TRAF7 RING domain (UniProt Q6Q0C0)): 0
B8 (CNOT4 RING domain): 0
B9 (RUFY1 RING domain): 0

Study 4
Target: RNA binding protein fox-1 homolog 2, RRM domain, GST-SBP tag (RBFOX2, Homo sapiens, UniProt O43251-10, residues 100-194)
Method: RNA Bind-n-Seq
Molecule type: RNA
Medium: in vitro
Tested at: 365 nM
Notes: natural RNA segment, single round, ends assumed
Reference: no-protein control
Direction: higher = stronger binding
Measurement: RBNS enrichment (R)
Construct (chain): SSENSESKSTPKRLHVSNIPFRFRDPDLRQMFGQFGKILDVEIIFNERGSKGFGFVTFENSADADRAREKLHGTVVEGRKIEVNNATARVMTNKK
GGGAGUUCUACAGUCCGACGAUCAACCACCACCAGAGAAAAGCAGGCCUGUGCAGUGCAGAUGCAAUGGAACGCAUCCCACCUUGCCAAAGCACUCAUACCAGUCGACUGUGCUCACUAGCAGGACACUGAAGUGGAAUUCUCGGGUGCCAA: 2.58
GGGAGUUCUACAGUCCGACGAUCUUUCUGCACAGGUUUAGGUGAGUAGACCACAUGCCCUAUGAGGCAAGCACCGAGCAAACCCUAGGGUGUGCCUCACCUGCGAUGCUGUGGGCAAACACUUCUCAGCUGGUUGGAAUUCUCGGGUGCCAA: 0.312
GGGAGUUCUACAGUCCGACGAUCGGCGCCUCGGAGCCAAUGUUGAGCCUUGAAGUUCAAAGGAAGAAGUAGCCAAAUCUUUUUCUAAUAAACUCAAUGUUCAGCUCCUCUGUGUUUAAGUUCUCGUAUCCUUGUGGAAUUCUCGGGUGCCAA: 0.208
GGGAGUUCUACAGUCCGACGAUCAUUGCAUACCAGUGUAAAAAGACUCUGCCUCCCCCCUUUUUGGCUUUUUUACUGGGCUUGGCUGGCCUUGCAGUUUACCAGAUUCAUUUACAGACUCUCUGCUCUGUAUGUGGAAUUCUCGGGUGCCAA: 0.854
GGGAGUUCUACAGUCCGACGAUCUACUCAAGUCUCUUGGGUAGAGAUCUGGAAGCCUGCAGGAGAGGAGGGGUACUUGUUUUCAUUGGAAAACUUUUAUGAUUAAGGGACUCUUUACAAACUGGCAUCUUAAGUGGAAUUCUCGGGUGCCAA: 0.665
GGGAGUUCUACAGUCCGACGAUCAGAAAAACAAAUACUUUCUUGAUCAAUAUGUAAAGCCAGGAAGUUGGUAAGAGUGACUGAGUAGCCUGACUAUAAUACACAGUUAUAGUGAUAAUCACAGGAAAAGAUGCUGGAAUUCUCGGGUGCCAA: 1.74
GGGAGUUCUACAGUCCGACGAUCAAUGAACGUUUCUGACUAAUAUUUUGUUGUAAACCAUUAAGUAAUGUAACGCAUGUAAGAUGCUUAGGGUGCCUGGCCAGGACUCCGUGGUUUCCUGUUGUGACAGUAAUUGGAAUUCUCGGGUGCCAA: 16.9
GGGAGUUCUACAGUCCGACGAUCUGAUUUUAGUUUUUCAUUUCUCAAAUAGGAAUACUACCUUUGAAUUCAAUAAAAUUCACUGCAGGAUGACCAGUUACAUGCUGUUUGUUCCAUAUGCUUUGUGUGUUGCUUGGAAUUCUCGGGUGCCAA: 0.52
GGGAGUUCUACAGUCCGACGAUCGGCAUGCCACACCACUGCCCAGCUCGUUUAUAUUCUUAAAAGCAAAAUAUUACAUUUCAUUACUGCUUCAUGAAGACAGAAAGUAAUUGAAACUUAAACAUAUAAAAACAUGGAAUUCUCGGGUGCCAA: 0.416
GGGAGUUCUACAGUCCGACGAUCUAUUACCCAGUAACAUUGAAUGUAGAUGGCUAAACGAUUCUUACUCAGUGUGAUGUAUAAUGAUGCAACAGGGACCCUUGUAAAUUGUCAUACGCCAAUAAAAUGUCACAUGGAAUUCUCGGGUGCCAA: 0.246
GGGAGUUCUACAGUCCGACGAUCGUUUUACUGGAUUCUCAGGGAGCCCUCUGUGGCCUUUUCCUUUAUUUUGAGUGCUGUUUCCUUUUUAGGAAAGAACAGCACUGUGGAAAUUUGCUUUUCCCCAUAGCAUGUGGAAUUCUCGGGUGCCAA: 1.39
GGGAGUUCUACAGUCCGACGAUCUUCCACAGGCCAUAAGAUUUUCUUCUGAGAAGAAUUUGUGUUUAAUUUUUUGAUACCAACACUGAACAUUCAUCAGGGAACUUUCCUGAAGUUCAGCUCAAGACUACCCUUGGAAUUCUCGGGUGCCAA: 0.576

Excerpt of the above (study 4):
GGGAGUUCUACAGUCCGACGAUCGGCGCCUCGGAGCCAAUGUUGAGCCUUGAAGUUCAAAGGAAGAAGUAGCCAAAUCUUUUUCUAAUAAACUCAAUGUUCAGCUCCUCUGUGUUUAAGUUCUCGUAUCCUUGUGGAAUUCUCGGGUGCCAA: 0.208
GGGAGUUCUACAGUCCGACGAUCAUUGCAUACCAGUGUAAAAAGACUCUGCCUCCCCCCUUUUUGGCUUUUUUACUGGGCUUGGCUGGCCUUGCAGUUUACCAGAUUCAUUUACAGACUCUCUGCUCUGUAUGUGGAAUUCUCGGGUGCCAA: 0.854
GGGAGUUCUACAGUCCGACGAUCUACUCAAGUCUCUUGGGUAGAGAUCUGGAAGCCUGCAGGAGAGGAGGGGUACUUGUUUUCAUUGGAAAACUUUUAUGAUUAAGGGACUCUUUACAAACUGGCAUCUUAAGUGGAAUUCUCGGGUGCCAA: 0.665
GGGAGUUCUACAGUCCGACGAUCAGAAAAACAAAUACUUUCUUGAUCAAUAUGUAAAGCCAGGAAGUUGGUAAGAGUGACUGAGUAGCCUGACUAUAAUACACAGUUAUAGUGAUAAUCACAGGAAAAGAUGCUGGAAUUCUCGGGUGCCAA: 1.74
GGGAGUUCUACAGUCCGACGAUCAAUGAACGUUUCUGACUAAUAUUUUGUUGUAAACCAUUAAGUAAUGUAACGCAUGUAAGAUGCUUAGGGUGCCUGGCCAGGACUCCGUGGUUUCCUGUUGUGACAGUAAUUGGAAUUCUCGGGUGCCAA: 16.9
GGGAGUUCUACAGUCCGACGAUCUGAUUUUAGUUUUUCAUUUCUCAAAUAGGAAUACUACCUUUGAAUUCAAUAAAAUUCACUGCAGGAUGACCAGUUACAUGCUGUUUGUUCCAUAUGCUUUGUGUGUUGCUUGGAAUUCUCGGGUGCCAA: 0.52
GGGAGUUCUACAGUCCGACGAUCGGCAUGCCACACCACUGCCCAGCUCGUUUAUAUUCUUAAAAGCAAAAUAUUACAUUUCAUUACUGCUUCAUGAAGACAGAAAGUAAUUGAAACUUAAACAUAUAAAAACAUGGAAUUCUCGGGUGCCAA: 0.416
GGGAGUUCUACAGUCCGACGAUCUAUUACCCAGUAACAUUGAAUGUAGAUGGCUAAACGAUUCUUACUCAGUGUGAUGUAUAAUGAUGCAACAGGGACCCUUGUAAAUUGUCAUACGCCAAUAAAAUGUCACAUGGAAUUCUCGGGUGCCAA: 0.246
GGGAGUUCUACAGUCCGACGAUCGUUUUACUGGAUUCUCAGGGAGCCCUCUGUGGCCUUUUCCUUUAUUUUGAGUGCUGUUUCCUUUUUAGGAAAGAACAGCACUGUGGAAAUUUGCUUUUCCCCAUAGCAUGUGGAAUUCUCGGGUGCCAA: 1.39
